Measured values of several laboratories.
A part holds a random share of what one study measured.

Sample 1
Target: Interferon regulatory factor 5, full length, phosphomimetic (IRF5, Homo sapiens, UniProt Q13568-2, residues 1-514, S451D/S453D/S456D/S462D)
Method: protein-binding microarray
Molecule type: double-stranded DNA, one strand shown
Sample: in vitro
Concentration: 940 nM top
Setting: 60-bp whole probe
With: salmon DNA 0.4 mg/ml
Baseline: random background probes
Direction: higher = stronger binding
All sequences stand within: GCCTAGCAC … GTCTTGATTCGCTTGACGCTGCTG
`TTAGTACTGGGGACTGGGTTAGTGCTA`: “fitted relative affinity” -0.102 z-score.
`GACGGTCTCGGTCTCGAGACGTGCTAG`: “fitted relative affinity” 4.14 z-score.
For `GACGGTATCGACTTTCGGGAAGTGCTA`, “fitted relative affinity” read 4.77 z-score.
`TTAGGTATCCTCCTGCTTTAGTGCTAG`: “fitted relative affinity” 0.2 z-score.
`CTCAAAGTCTTTTATGGTATTGTGCTA`: “fitted relative affinity” -0.0253 z-score.
`TATCTTATGATATATATAATAGTGCTA`: “fitted relative affinity” 0.261 z-score.

Sample 2
Target: Centromere-binding protein 1, full length, N-terminal tag (CBF1, Saccharomyces cerevisiae, UniProt P17106, residues 1-351)
UniProt P17106, sequence (whole entry, looked up): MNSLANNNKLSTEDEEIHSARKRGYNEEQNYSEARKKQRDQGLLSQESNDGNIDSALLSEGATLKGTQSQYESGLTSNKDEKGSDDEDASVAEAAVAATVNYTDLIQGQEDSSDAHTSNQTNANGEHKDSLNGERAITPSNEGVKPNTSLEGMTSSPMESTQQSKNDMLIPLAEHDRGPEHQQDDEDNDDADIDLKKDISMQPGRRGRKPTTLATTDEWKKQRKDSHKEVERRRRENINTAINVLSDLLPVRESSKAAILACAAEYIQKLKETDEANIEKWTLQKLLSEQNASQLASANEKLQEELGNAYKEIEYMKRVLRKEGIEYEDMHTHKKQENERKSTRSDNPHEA
Method: protein-binding microarray
Molecule type: double-stranded DNA, one strand shown
Sample: in vitro
Concentration: 0.8 µM
Setting: whole 60-bp probe, no competitor
Direction: higher = stronger binding
The fluorescence intensity of `CTATAACGGAGCCGTGACGAGAGTGGCTGTGATTTCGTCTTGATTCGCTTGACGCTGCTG` is reported as 594 a.u.
For `CCTAACTACTATAATAAGTCACGATAGCTTCGTACAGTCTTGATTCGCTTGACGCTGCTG`, the fluorescence intensity was 927 a.u.
For `GAATCAGTGGAGTGTCACCCCGGGAAGATATTCTAGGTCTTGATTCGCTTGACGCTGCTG`, the fluorescence intensity was 512 a.u.
For `GAACTTCCGTTCTGATATCACATGTATAATAGTTAGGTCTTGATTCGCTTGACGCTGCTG`, the fluorescence intensity was 2610 a.u.
`GAAAGAAAAACCGATCACGTACATCGATGTACGTAGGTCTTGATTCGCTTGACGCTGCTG` has a fluorescence intensity of 1040 a.u.

Further values, each from its own experiment
UNK zinc fingers 1-6, SBP tag: RING finger protein unkempt homolog, zinc fingers 1-6, SBP tag (UNK, Homo sapiens, UniProt Q9C0B0, residues 30-357)
UniProt Q9C0B0, sequence (30-357, looked up): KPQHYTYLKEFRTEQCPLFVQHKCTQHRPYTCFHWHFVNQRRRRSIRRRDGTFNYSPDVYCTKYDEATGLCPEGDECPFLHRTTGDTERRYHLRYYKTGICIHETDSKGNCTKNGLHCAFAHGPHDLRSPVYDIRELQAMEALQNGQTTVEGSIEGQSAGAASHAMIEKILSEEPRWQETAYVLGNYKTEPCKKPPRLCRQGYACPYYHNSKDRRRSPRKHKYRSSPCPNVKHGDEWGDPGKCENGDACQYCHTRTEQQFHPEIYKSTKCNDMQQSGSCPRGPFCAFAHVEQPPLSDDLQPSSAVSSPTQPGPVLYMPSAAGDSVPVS
For `GGGAGUUCUACAGUCCGACGAUCGAGUGCGUGAACAUCUGCAUAAACUGGGAAGACUUGUACCCUUGGGCUCAUACAGAAACCUAUUUACACUCCAGUUCUAUACGCAGAGCAGUGUAGAUUCUGAGGGACAUCGAGCCUCUCCAACAGAGGAUUGAGCAUCA`, the bound/input enrichment was 0.196 ratio (UNK zinc fingers 1-6, SBP tag; RNA Bind-n-Seq; RNA, in vitro; 100 nM, RNA with constant flanks, vertebrate orthologous sites, ends assumed; baseline: input RNA pool, higher = stronger binding).
`PhoQ, residues 284 288 289 292 302 303 TTSMTC` gave a fold induction of 9.21 (PhoP, residues 12 14 15 18 19 VQALL (Escherichia coli, UniProt P23836); Sort-seq, item: YFP reporter; E. coli; PhoQ-PhoP variant library, with: 10 µM Mg2+; baseline: high Mg2+ state, higher = stronger signaling).
`GGGAGUUCUACAGUCCGACGAUCUAUUCAGACUCUUAAUAAAUUGCUCAGACUUUCUAAAGUUCACUUUGGAGGAUCCGCCCAUAGGAUGGUGUUGCCAUAUUGUUUUGUUCUGUUUUUUAAACUUGUGUACUGUGUCCAGAGCAACAGAGGAUUGAGCAUCA` has a bound/input enrichment of 0.583 ratio (UNK zinc fingers 1-6, SBP tag; RNA Bind-n-Seq; RNA, in vitro; 100 nM, RNA with constant flanks, vertebrate orthologous sites, ends assumed; baseline: input RNA pool, higher = stronger binding).
